# Experimental data gathered from unrelated publications.
# Lines come from different studies, so protocols differ. Several values in a cell are separate wells, animals, samples, runs or records. Numbers after ± are the reported error.
Structure (SMILES),assay,test system,conditions,scale,endpoint,result
COc1ccc2c(c1)CCn1c[n+]3c(c1-2)-c1ccc(OC)cc1CC3,,"female NSG mice, blood","6 mg/kg, day 7, 5 days per week",,MCHC,32.9 ± 0.88 g/dL
Cc1cc(-c2ccc(C(=O)[C@@H]3CCCC[C@H]3C(=O)Nc3cnn4c3C(=O)NCC4)cc2)[nH]n1,,"human, faeces","oral, 200 mg, 144-168 h",reference: dose,radioactivity recovery per interval,2.02% and 0.06% and 0.1% and 0.2%
CC[C@H](C)[C@H](NC(=O)[C@H](CC(N)=O)NC(=O)[C@@H](N)CCSC)C(=O)N[C@@H](CCSC)C(=O)N[C@@H](CC(=O)O)C(=O)N[C@@H](Cc1ccccc1)C(=O)N[C@@H](CC(N)=O)C(=O)N[C@H](C(=O)N[C@@H](CCCCN)C(=O)N[C@@H](CCCCN)C(=O)N[C@@H](CC(C)C)C(=O)N[C@@H](C)C(=O)N[C@@H](C)C(=O)N[C@@H](CC(=O)O)C(=O)N[C@@H](C)C(=O)NCC(=O)N[C@H](C(=O)N[C@@H](Cc1c[nH]c2ccccc12)C(=O)N[C@@H](CC(C)C)C(=O)N[C@@H](CO)C(=O)N[C@@H](CCCNC(=N)N)C(=O)N[C@@H](C)C(=O)N[C@H](C(=O)N[C@@H](CCC(N)=O)C(=O)N[C@@H](Cc1ccccc1)C(=O)N[C@H](C(=O)N[C@@H](CCC(=O)O)C(=O)N[C@@H](CCC(=O)O)C(=O)N[C@@H](CCCCN)C(=O)N[C@@H](CC(C)C)C(=O)NCC(=O)N[C@@H](CCC(N)=O)C(=O)N[C@@H](C)C(N)=O)[C@@H](C)O)C(C)C)[C@@H](C)O)C(C)C,circular dichroism,aqueous TFE,"50 µM, pH 7.4, 20 °C",,TFE midpoint,2.64 ± 0.04 M
CCCCN1C(=O)c2cccc3c(NCCCCCCN4CCOCC4)ccc(c23)C1=O,,"1,4-dioxane",,,fluorescence quantum yield,1.06
O=C([O-])CN1CCN(CC(=O)[O-])CCN(C(CO)C(O)CO)CCN(CC(=O)[O-])CC1.[Dy+3] (stereo not shown),,"cynomolgus monkey, cerebellum","dose not given, day 5",,lanthanide tissue concentration,0.033 ± 0.006 nmol/g
COc1cccc(OC)c1-c1cc(C(=O)NC2(C(=O)O)C3CC4CC(C3)CC2C4)nn1-c1ccc(C(=O)N(C)CCOCCOCCN(C)C(=O)[C@H](CCCCNC(=O)[C@H](CC(C)C)NC(=O)C2OC2C(=O)O)NC(=O)CN2CCN(CC(=O)[O-])CCN(CC(=O)[O-])CCN(CC(=O)[O-])CC2)cc1C(C)C.[177Lu+3] (mixture of isomers),,"mouse, HT-29 xenograft","24 h post injection, biodistribution",reference: tumour over liver uptake,tumour-to-liver ratio,1.85
CN1CCC[C@]1(C)/C=C/S(=O)(=O)NC(=O)Nc1c2c(cc3c1CCC3O)CCC2 (stereo partly shown),,"human, plasma","oral, 50 mg twice daily of parent drug, metabolite of dosed drug",reference: day 14 over day 1,AUC(0-tau) accumulation ratio,1.6
Cc1cc(Cl)cc(S(C)(=O)=NC#N)c1NC(=O)c1cc(Br)nn1-c1ncccc1Cl (stereo not shown),potentiometric,,,,pKa,8.15
Cc1c(Cc2cccc(OC(C)(C)C(=O)O)c2)c2ccc(C(=O)N[C@@H](C)c3cccc(C(C)(C)C)c3)cc2n1CC(C)C,metabolic stability,"mouse, liver microsomes",,,half-life,> 1 h
C[N+](C)(CCOCCOCCOCCNC(=S)Nc1ccc(C[C@H]2CN(CC(=O)[O-])CCN(CC(=O)[O-])CCN2CC(=O)[O-])cc1)C[c-]1cccc1.[64Cu+2].[Fe+2].c1cc[cH-]c1,,"nude mice, BxPC-3 xenograft, tumour","8 h, no pretargeting",,tumour uptake,0.2 %ID/g
COc1cc(N2CCN(C(=O)C3CCCN3)CC2)ccc1Nc1ncc(Cl)c(Nc2ccccc2P(C)(C)=O)n1 (stereo not shown),,"nude mice, NCI-H3122 xenograft","intraperitoneal, 10 mg/kg every other day, day 13",,body weight,27.7 g and 24.5 g and 25.3 g and 26.1 g and 21.9 g
O=C(NCCN1C(=O)CCC1=O)[O][Pt]12([O]C(=O)NCCN3C(=O)CCC3=O)([NH][C@@H]3CCCC[C@H]3[NH]1)[O]C(=O)C(=O)[O]2,"AUC-based, refers to: platinum","BALB/c mice, CT26 tumour",iv,reference: tumour over kidney,tumour to organ ratio,0.3
CN(O)C(=O)CCC(=O)NCCCN(CCCCN(CCCNC(=O)CCC(=O)N(C)O)C(=O)CCC(=O)N(C)O)C(=O)CCC(=O)N(C)O.[89Zr],,"mouse, heart",1 h,,tracer uptake,0.29 %ID/g
CCCC[C@H](NC(=O)CCCCCCCNC(=O)CN1CCN(CC(=O)O)CCN(CC(=O)O)CC1)C(=O)N[C@H]1CC(=O)NCCCC[C@@H](C(N)=O)NC(=O)[C@H](Cc2c[nH]c3ccccc23)NC(=O)[C@H](CCCNC(=N)N)NC(=O)[C@@H](Cc2ccccc2)NC(=O)[C@H](Cc2c[nH]cn2)NC1=O [fluorine-18 labelled],,"C57 mice, B16/F10 melanoma, urine","intravenous, 0.37 MBq, 1 h",,urinary excretion,74.5 ± 2.12%
Cc1nc(N)nc2c1C(=O)N[C@@H](c1ccc(F)cc1-c1cccc(O[11CH3])n1)C2,ex vivo biodistribution,"mice, MDA-MB-231 subcutaneous xenograft, lungs","60 min post-injection, baseline, vehicle pre-treatment",,tracer uptake,2.1 ± 0.3 %ID
CN([O-])C(=O)CN1CCN(CC(=O)N(C)[O-])CCN(Cc2ccccn2)CC1.[89Zr+4],,"mouse, blood","intravenous, 24 h",,tracer uptake,0.33 %ID/g
C/C(N)=N/C(=N\S(=O)(=O)c1ccc(C(F)(F)F)cc1)N1C[C@H](c2ccccc2)C(c2ccc(Cl)cc2)=N1,metabolic stability,"minipig, liver microsomes",,,half-life,1.35 h
O=C(O)/C=C\c1cc2ccoc2cc1O[C@@H]1O[C@H](CO)[C@@H](O)[C@H](O)[C@H]1O,post-procedure stability,rat plasma,"8 ng/mL, 1 h, room temperature",,accuracy,102%
CN1CCC[C@]1(C)/C=C/S(=O)(=O)NC(=O)Nc1c2c(cc3c1CCC3)CC=C2,,"human, plasma","oral, 100 mg twice daily of parent drug, day 1, metabolite of dosed drug",,AUC(0-tau),285 µg·h/mL
CC(C)(C)[C@H](NC(=O)C(F)F)C(=O)N1C[C@H]2[C@@H]([C@H]1C(=O)N[C@H](C#N)C[C@@H]1CCCNC1=O)C2(C)C,,mouse liver microsomes,scaled to liver,,intrinsic clearance,331 mL/min/kg
CC(C)(O)c1ncc([S@](N)(=O)=NC(=O)Nc2c3c(cc4c2CCC4)CCC3)s1,refers to: nervous system disorders,healthy human subjects,"oral, 100 mg, fed",,share of subjects with TEAEs,17%
Cc1nc(N)nc2c1C(=O)N[C@@H](c1ccc(F)cc1-c1cccc(OCC[18F])n1)C2,ex vivo biodistribution,"C57BL/6 mice, lungs","intravenous, 1 MBq, 30 min",,SUV,1.39 ± 0.15
COc1ccnc(C(=O)N[C@H]2COC(=O)[C@H](Cc3ccccc3)[C@@H](OC(=O)C(C)C)[C@H](C)OC2=O)c1O,,"wheat, straw","foliar, dose not given",,residue level,≤ 0.08 mg/kg
CCCCN1C(=O)c2cccc3c(NCCCN4CCOCC4)ccc(c23)C1=O,,chloroform,,,fluorescence quantum yield,0.64
C=C(NC(=O)c1csc(-c2nc3c(cc2O)-c2nc(cs2)C(=O)NC(C(C)O)C(=O)NC(=C(C)OC)c2nc(cs2)C(=O)NC2c4nc(cs4)C(=O)NC(COC(=O)c4c5c6c(cccc6n4O)COC(=O)C(OC4CC(C)(O)C(N(C)C)C(C)O4)C2OC5)c2nc-3cs2)n1)C(N)=O (stereo not shown),,"cynomolgus monkey, female, plasma","intravenous infusion, 3 mg/kg single dose",,MRT(0-last),1.36 h
C[C@@H]1O[C@@H](O[C@@H]2[C@@H](O)[C@H](O)[C@@H](CO)O[C@H]2c2c(O)cc(O)c3c(=O)cc(-c4ccc(O)cc4)oc23)[C@H](O)[C@H](O)[C@H]1O,,"Sprague-Dawley rat, bile","intravenous, 20 mg/kg, 8 h",,cumulative biliary excretion amount,148 ± 8.01 µg
O=Cc1cc(C(F)(F)F)cc(C(F)(F)F)c1,"chemical stability, HPLC-MS",borate buffered saline,"pH 10.2, no N-acetyl-lysine",,degradation rate constant,0.1 h⁻¹
C=C[C@]1(C)C[C@@H](OC(=O)CSc2ccc(NC(=O)c3ccco3)cc2)[C@]2(C)[C@H](C)CC[C@]3(CCC(=O)[C@H]32)[C@@H](C)[C@@H]1O,,"M. gallisepticum-infected chickens, plasma","intramuscular, 5 mg/kg single dose",,absorption half-life,5.34 min and 5.4 min
O=C(Nc1cnccc1-c1ccc([18F])cc1)c1ccnc(NC(=O)C2CC2)c1,,"FVB/NJ mouse, both sexes, brain","intravenous, 50 min, added: tariquidar 15 mg/kg iv",,SUV,0.37
Cc1noc(C)c1Cn1cc(N2C(=O)CN(Cc3cccc(OS(=O)(=O)O)c3)C2=O)cn1,,"Sprague-Dawley rat, male","oral, 100 mg/kg of parent drug, 2 h",,plasma concentration,4910 ng/mL
CC[C@H](C)[C@H](N)C(=O)N[C@@H](CC(C)C)C(=O)N1CCC[C@H]1C(=O)N[C@@H](CO)C(=O)N[C@@H](CC(=O)O)C(=O)N[C@H](C(=O)N[C@@H](CCSC)C(=O)N[C@@H](CC(=O)O)C(=O)N[C@@H](Cc1ccccc1)C(=O)N[C@H](C(=O)N[C@@H](CC(C)C)C(=O)N[C@@H](CCCCN)C(=O)N[C@@H](CC(N)=O)C(=O)N[C@H](C(=O)N1CCC[C@H]1C(N)=O)[C@@H](C)O)C(C)C)[C@@H](C)CC,HPLC,50% human serum,"1 mg/mL, 24 h, 37 °C",,degradation,~25%
CCCCN1C(=O)c2cccc3c(NCCCCCCCCN4CCOCC4)ccc(c23)C1=O,,toluene,,,absorption maximum,426 nm
COC(=O)Nc1ccc2nc(C(=N)N)ccc2c1.Cl,,octanol/buffer,"67 µM, pH 7.4",,logD,-1.09
CCCCN1C(=O)c2cccc3c(NCCCCN4CCOCC4)ccc(c23)C1=O,,acetonitrile,,,absorption maximum,431 nm
C[C@H](CCC(=O)NCC(=O)O)[C@H]1CC[C@H]2[C@@H]3[C@H](O)C[C@@H]4C[C@H](OS(=O)(=O)O)CC[C@]4(C)[C@H]3CC[C@]12C,,"human, plasma",baseline,,mean daily plasma concentration,0.0821 ± 0.0155 µM
CCCCN1C(=O)c2cccc3c(NCCCCCN4CCOCC4)ccc(c23)C1=O,,ethyl acetate,,,fluorescence quantum yield,1.06
O=C(Nc1cnccc1-c1ccc([18F])nc1)c1ccnc(NC(=O)C2CC2)c1,,"FVB/NJ mice, both sexes, brain","intravenous, 25 min, median, P-gp inhibitor pretreatment, added: tariquidar 15 mg/kg iv",,SUV,0.194

# Some of these lines once more:
Structure (SMILES),assay,test system,conditions,scale,endpoint,result
CN(O)C(=O)CCC(=O)NCCCN(CCCCN(CCCNC(=O)CCC(=O)N(C)O)C(=O)CCC(=O)N(C)O)C(=O)CCC(=O)N(C)O.[89Zr],,"mouse, heart",1 h,,tracer uptake,0.29 %ID/g
CCCC[C@H](NC(=O)CCCCCCCNC(=O)CN1CCN(CC(=O)O)CCN(CC(=O)O)CC1)C(=O)N[C@H]1CC(=O)NCCCC[C@@H](C(N)=O)NC(=O)[C@H](Cc2c[nH]c3ccccc23)NC(=O)[C@H](CCCNC(=N)N)NC(=O)[C@@H](Cc2ccccc2)NC(=O)[C@H](Cc2c[nH]cn2)NC1=O [fluorine-18 labelled],,"C57 mice, B16/F10 melanoma, urine","intravenous, 0.37 MBq, 1 h",,urinary excretion,74.5 ± 2.12%
Cc1nc(N)nc2c1C(=O)N[C@@H](c1ccc(F)cc1-c1cccc(O[11CH3])n1)C2,ex vivo biodistribution,"mice, MDA-MB-231 subcutaneous xenograft, lungs","60 min post-injection, baseline, vehicle pre-treatment",,tracer uptake,2.1 ± 0.3 %ID
CN([O-])C(=O)CN1CCN(CC(=O)N(C)[O-])CCN(Cc2ccccn2)CC1.[89Zr+4],,"mouse, blood","intravenous, 24 h",,tracer uptake,0.33 %ID/g
C/C(N)=N/C(=N\S(=O)(=O)c1ccc(C(F)(F)F)cc1)N1C[C@H](c2ccccc2)C(c2ccc(Cl)cc2)=N1,metabolic stability,"minipig, liver microsomes",,,half-life,1.35 h
O=C(O)/C=C\c1cc2ccoc2cc1O[C@@H]1O[C@H](CO)[C@@H](O)[C@H](O)[C@H]1O,post-procedure stability,rat plasma,"8 ng/mL, 1 h, room temperature",,accuracy,102%
